Experimental data from different studies.
A part holds a random share of what one study measured. Values joined by “and” are separate records of one study, mostly repeats; a detail may differ.
Chain of UniProt Q13131 (whole entry, looked up): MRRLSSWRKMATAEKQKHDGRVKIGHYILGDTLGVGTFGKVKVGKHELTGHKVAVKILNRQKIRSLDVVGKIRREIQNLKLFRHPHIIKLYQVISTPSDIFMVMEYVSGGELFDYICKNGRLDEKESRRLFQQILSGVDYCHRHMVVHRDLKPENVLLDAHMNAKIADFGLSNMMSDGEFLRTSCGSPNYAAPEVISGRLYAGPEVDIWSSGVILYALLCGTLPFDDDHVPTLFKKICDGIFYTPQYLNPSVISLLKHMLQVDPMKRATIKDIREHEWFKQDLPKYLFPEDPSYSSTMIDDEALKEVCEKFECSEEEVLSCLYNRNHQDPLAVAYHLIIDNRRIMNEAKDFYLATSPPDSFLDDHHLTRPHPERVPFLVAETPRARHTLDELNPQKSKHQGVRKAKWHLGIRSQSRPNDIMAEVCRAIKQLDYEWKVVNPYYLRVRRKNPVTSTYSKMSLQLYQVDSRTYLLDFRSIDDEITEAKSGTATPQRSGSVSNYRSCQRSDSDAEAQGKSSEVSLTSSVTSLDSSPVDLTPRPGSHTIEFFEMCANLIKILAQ
Chain of UniProt O15075 (whole entry, looked up): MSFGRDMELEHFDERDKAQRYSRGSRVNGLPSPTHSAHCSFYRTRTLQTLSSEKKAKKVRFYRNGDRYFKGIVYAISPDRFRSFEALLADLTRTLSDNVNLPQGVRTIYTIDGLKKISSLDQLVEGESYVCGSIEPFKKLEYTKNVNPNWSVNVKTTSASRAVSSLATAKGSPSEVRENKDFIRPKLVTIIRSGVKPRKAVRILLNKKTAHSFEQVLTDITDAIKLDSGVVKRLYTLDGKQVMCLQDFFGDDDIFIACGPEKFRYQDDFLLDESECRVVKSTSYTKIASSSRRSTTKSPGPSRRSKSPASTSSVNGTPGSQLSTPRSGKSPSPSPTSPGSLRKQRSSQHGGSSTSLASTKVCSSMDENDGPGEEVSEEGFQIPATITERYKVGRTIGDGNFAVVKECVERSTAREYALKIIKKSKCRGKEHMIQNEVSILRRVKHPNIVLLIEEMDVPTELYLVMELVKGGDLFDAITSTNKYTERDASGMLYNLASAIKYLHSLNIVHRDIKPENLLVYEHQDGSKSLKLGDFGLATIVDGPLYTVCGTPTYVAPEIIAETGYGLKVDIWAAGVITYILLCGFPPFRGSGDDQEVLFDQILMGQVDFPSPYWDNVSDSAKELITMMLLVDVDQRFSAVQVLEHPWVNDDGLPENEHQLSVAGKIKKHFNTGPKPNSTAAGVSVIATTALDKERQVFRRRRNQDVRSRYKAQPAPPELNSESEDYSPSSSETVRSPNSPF
Chain of UniProt P28482 (whole entry, looked up): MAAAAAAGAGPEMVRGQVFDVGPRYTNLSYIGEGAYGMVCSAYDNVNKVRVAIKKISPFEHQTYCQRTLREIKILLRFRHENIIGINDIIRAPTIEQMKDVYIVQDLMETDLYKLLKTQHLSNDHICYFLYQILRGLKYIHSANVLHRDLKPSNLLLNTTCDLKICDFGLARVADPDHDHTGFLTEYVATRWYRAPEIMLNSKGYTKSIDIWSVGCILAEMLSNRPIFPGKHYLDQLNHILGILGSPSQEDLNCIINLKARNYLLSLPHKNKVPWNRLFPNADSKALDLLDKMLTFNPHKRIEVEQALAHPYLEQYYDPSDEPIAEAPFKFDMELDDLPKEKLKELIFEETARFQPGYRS
Chain of UniProt O15146 (whole entry, looked up): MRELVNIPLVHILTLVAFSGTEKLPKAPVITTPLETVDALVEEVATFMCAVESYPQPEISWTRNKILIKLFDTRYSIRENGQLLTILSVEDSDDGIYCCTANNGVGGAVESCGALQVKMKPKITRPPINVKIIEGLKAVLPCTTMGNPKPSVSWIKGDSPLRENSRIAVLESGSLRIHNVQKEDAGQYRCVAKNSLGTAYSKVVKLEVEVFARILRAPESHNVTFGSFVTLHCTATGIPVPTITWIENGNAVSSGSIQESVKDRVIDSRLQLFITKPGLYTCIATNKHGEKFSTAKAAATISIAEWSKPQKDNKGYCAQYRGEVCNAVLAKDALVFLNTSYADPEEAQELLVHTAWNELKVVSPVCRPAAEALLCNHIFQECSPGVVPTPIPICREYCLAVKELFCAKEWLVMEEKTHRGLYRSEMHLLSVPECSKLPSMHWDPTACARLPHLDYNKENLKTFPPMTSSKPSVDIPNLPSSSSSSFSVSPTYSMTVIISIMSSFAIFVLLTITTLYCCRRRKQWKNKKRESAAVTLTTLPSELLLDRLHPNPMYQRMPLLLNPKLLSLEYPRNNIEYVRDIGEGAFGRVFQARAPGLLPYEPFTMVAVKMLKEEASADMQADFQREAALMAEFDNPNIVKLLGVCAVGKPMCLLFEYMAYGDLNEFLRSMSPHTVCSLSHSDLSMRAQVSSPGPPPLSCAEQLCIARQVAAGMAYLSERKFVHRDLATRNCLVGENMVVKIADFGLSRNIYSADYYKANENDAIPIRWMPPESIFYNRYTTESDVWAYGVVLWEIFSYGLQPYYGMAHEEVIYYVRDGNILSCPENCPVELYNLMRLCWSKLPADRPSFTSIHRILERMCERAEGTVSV
Chain of UniProt Q9Y3S1 (whole entry, looked up): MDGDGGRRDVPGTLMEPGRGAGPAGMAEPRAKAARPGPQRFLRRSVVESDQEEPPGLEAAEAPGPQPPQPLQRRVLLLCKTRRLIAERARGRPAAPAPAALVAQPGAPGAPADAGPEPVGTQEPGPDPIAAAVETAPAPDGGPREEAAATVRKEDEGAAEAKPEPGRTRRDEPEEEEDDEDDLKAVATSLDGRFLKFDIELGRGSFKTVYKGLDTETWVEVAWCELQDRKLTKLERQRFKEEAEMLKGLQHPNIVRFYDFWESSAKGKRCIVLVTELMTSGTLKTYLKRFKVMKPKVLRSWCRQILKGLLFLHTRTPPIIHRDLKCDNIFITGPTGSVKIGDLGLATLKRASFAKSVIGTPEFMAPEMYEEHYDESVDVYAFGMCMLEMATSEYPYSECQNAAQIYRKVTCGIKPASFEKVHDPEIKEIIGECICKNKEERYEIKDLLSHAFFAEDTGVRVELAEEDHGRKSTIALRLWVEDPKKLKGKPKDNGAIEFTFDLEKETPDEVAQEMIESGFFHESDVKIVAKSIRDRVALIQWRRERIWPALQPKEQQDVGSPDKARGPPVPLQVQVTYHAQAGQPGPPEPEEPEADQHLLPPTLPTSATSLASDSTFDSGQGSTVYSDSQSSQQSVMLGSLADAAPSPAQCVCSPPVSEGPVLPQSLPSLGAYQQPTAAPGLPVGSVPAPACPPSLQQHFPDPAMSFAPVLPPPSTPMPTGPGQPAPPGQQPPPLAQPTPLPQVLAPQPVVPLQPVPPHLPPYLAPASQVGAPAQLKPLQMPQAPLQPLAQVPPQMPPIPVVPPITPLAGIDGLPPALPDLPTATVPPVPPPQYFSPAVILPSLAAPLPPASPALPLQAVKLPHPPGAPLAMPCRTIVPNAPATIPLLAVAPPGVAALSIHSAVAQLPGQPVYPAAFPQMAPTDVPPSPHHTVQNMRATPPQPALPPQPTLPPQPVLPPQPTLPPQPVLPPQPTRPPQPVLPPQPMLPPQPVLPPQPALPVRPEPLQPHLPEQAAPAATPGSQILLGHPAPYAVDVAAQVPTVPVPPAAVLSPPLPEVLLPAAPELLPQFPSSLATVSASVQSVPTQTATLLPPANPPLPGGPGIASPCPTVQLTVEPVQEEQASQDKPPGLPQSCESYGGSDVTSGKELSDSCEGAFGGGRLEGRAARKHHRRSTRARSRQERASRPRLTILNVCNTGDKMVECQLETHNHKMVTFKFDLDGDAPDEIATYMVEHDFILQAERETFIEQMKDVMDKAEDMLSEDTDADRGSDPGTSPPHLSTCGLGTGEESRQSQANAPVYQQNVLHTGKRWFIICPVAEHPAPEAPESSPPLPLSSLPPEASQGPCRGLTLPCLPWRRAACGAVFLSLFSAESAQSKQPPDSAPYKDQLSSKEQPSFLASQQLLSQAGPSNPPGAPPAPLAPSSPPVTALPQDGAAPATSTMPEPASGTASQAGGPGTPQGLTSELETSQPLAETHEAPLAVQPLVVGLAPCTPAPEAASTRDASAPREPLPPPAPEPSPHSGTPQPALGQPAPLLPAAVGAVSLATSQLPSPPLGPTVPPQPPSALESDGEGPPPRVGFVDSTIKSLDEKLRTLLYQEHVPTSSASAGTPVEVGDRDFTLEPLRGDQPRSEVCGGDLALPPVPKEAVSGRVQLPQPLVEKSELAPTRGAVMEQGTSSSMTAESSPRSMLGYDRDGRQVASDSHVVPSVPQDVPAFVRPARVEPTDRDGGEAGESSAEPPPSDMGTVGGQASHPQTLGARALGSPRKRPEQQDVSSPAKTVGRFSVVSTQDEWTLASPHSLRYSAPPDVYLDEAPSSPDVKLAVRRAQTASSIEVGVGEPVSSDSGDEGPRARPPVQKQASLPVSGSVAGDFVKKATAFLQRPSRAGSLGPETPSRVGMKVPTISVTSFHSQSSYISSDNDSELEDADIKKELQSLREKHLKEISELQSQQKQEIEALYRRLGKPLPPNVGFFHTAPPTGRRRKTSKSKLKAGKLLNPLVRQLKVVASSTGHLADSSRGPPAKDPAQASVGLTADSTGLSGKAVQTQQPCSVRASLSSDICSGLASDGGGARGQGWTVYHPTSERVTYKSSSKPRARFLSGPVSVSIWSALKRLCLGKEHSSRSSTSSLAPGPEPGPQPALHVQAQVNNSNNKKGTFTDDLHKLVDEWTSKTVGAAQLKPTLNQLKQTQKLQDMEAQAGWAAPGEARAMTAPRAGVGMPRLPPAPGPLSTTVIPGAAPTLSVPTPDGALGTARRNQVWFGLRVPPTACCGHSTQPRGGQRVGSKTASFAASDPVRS

Series 1
SMILES: CC(C)(O)c1cncc(-c2nc3ccc(F)cc3n2C2CC2)c1
Read-out: cell-free assay
Technique: competition with immobilised ligand
Concentration: 1 µM
target	remaining binding [%]
ACVRL1 (Homo sapiens, UniProt P37023)	100
PRKAA1 (Homo sapiens, UniProt Q13131)	100
STK32B (Homo sapiens, UniProt Q9NY57)	97
MAPK1 (Homo sapiens, UniProt P28482)	100
TRPM6 (Homo sapiens, UniProt Q9BX84)	100
BRSK2 (Homo sapiens, UniProt Q8IWQ3)	100
FRK (Homo sapiens, UniProt P42685)	100
MAP3K12 (Homo sapiens, UniProt Q12852)	100
ULK1 (Homo sapiens, UniProt O75385)	100
LRRK2 (Homo sapiens, UniProt Q5S007)	100
EIF2AK1 (Homo sapiens, UniProt Q9BQI3)	100
DCLK1 (Homo sapiens, UniProt O15075)	88
ZAP70 (Homo sapiens, UniProt P43403)	100
STK17A (Homo sapiens, UniProt Q9UEE5)	94
MUSK (Homo sapiens, UniProt O15146)	100

Series 2
SMILES: CN(C(=O)c1ccn2ncc(-c3ccc(C(N)=O)cc3)c2c1)c1ccc(C#N)cn1
Organism: Cryptosporidium parvum
Technique: time-kill
Cell line: HCT-8
Strain: nanoluciferase-expressing
Reading: higher = more parasites
concentration	time	parasite luminescence
0.7407 µM	4 h	72300 RLU and 77100 RLU
0.00305 µM	8 h	109000 RLU and 100000 RLU
20 µM	8 h	91700 RLU and 78300 RLU
0.7407 µM	24 h	63200 RLU and 81100 RLU
0.7407 µM	8 h	107000 RLU and 116000 RLU

Series 3
Host: mouse
Medium: microsomes or S9
Concentration: 2 µM
Time: 0.5 h
Structure (SMILES)	remaining compound
CC(Oc1ccc(F)cc1Br)C(=O)NCC(C)c1ccncc1 (centres unmarked)	1.84%
C/C(=C\c1ccc(C(=O)O)cc1)CN1CCN(c2ccccn2)CC1	53%
CC1CN(Cc2cncs2)CCN1CC(C)(C)O (centres unmarked)	32.7%
Cc1cccc(C)c1C1=NOC(C)(CS(=O)(=O)C2=NOC(C)(C)C2)C1 (centres unmarked)	0.114%
CC(C)(C)c1nnc2ccc(N3CCCc4occc4C3)nn12	4.41%
Cc1ccc(S(=O)(=O)c2cn(CC3CCCO3)c(=O)n(-c3ccccc3)c2=O)cc1 (centres unmarked)	5.3%

Series 4
Structure (SMILES): CCCCc1c(-c2ccc(O)cc2)[nH]c2nccnc12
Read-out: enzyme activity
Action: inhibitor
Concentration: 0.5 µM
Reference: control
target	remaining activity
MAP2K6 (Homo sapiens, UniProt P52564)	100%
MAPK13 (Homo sapiens, UniProt O15264)	101%
MAP3K10 (Homo sapiens, UniProt Q02779)	74.3%
PRKG1 (Homo sapiens, UniProt Q13976)	94.5%
KIT (Homo sapiens, UniProt P10721)	80.8%
WNK2 (Homo sapiens, UniProt Q9Y3S1)	117%
LYN (Homo sapiens, UniProt P07948)	87.3%
Cyclin-dependent kinase 9, with cyclin T1 (CDK9, Homo sapiens, UniProt P50750)	45.9%
EPHA5 (Homo sapiens, UniProt P54756)	96.4%

Repeated from above (series 4):
target	remaining activity
MAPK13 (Homo sapiens, UniProt O15264)	101%
MAP3K10 (Homo sapiens, UniProt Q02779)	74.3%
PRKG1 (Homo sapiens, UniProt Q13976)	94.5%
KIT (Homo sapiens, UniProt P10721)	80.8%
WNK2 (Homo sapiens, UniProt Q9Y3S1)	117%
